Earlier results, collected from citations in different studies.
Compare with care: the assays were run in different laboratories. Numbers after ± are the reported error. In brackets after ≈: the same amount, converted by molar mass.

Structure (SMILES) | tested on | assay | test system | conditions | scale | quantity | value
Cc1[nH]c(C)c([N+](=O)[O-])c(=O)c1-c1ccc(Oc2ccc(OC(F)(F)F)cc2)cc1 | Plasmodium falciparum | whole cell extended time | 3D7 | 72 h |  | IC50 | 250 nM
COc1ccccc1Oc1cccc(CN2CCC(NC(=O)C(CCN3CCCC3)c3ccccc3)CC2)c1 (stereo not drawn) | human CCR8 S289A mutant (TM7) | IP accumulation, agonist |  |  |  | EC50 | 17 nM
CCc1cn2c(C3C(C(=O)OC)=C(C)NC(C)=C3C(=O)OC)c(-c3cc(OC)ccc3OC)nc2s1 |  |  | guinea pig left atrium | 50 µM, paced at 1 Hz | baseline: control | decrease in developed tension | 72 ± 3.6%
Nc1cc(C(F)(F)F)c(-c2nc(N3CCOCC3)nc(N3CCOCC3)n2)cn1 | BT-549 |  |  |  |  | GI50 | 1320 nM
Oc1c2ccccc2c2c3c(cccc13)N=N2 | CSNK1G1 | kinase activity, inhibitor |  | 0.5 µM |  | inhibition | 14%
COc1ccccc1Oc1cccc(CN2CCC(O)(c3ccccc3C(=O)O)CC2)c1 | human CCR8 G206A mutant (TM5) | IP accumulation, agonist |  |  |  | EC50 | no effect
Cc1[nH]c(C)c(-c2ccc(-c3ccc(C(F)(F)F)cc3C(F)(F)F)nc2)c(=O)c1Br | Plasmodium falciparum | whole cell extended time | 3D7 | 72 h |  | IC50 | 190 nM
COC(=O)C1=C(C)NC(C)=C(C(=O)OC)C1c1c(-c2ccc(OC)c(OC)c2)nc2sccn12 |  |  | guinea pig right atrium | 5x1.000e-05 M |  | decrease in heart rate | 80 ± 1.9%
Cl.Nc1nccc(-c2c(-c3ccc(F)cc3)ncn2C2CCNCC2)n1 | CSNK1G1 | kinase activity, inhibitor |  | 0.5 µM |  | inhibition | 17%
Nc1cccc2c1C(=O)N(C1CCC(=O)NC1=O)C2=O (stereo not drawn) |  |  | relapsed refractory multiple myeloma patients | dose not given, phase II, sample A patients, with: low-dose dexamethasone |  | median progression-free survival | 4.2 months
Cc1cc2nc(-c3ccc(C(=O)NC4CCN(Cc5ccccc5)CC4)s3)[nH]c2cc1C | Plasmodium falciparum | whole cell extended time | 3D7 | 72 h |  | IC50 | 770 nM
CC1(C)S[C@@H]2[C@H](NC(=O)[C@H](N)c3ccccc3)C(=O)N2[C@H]1C(=O)O | Klebsiella pneumoniae |  | clinical isolate RKI-No_393/16 |  |  | MIC | 8 µg/mL (≈ 22.9 µM)
COc1ccccc1Oc1cccc(CN2CCC(NC(=O)C3CC(=O)Nc4ccccc43)CC2)c1 (stereo not drawn) | human CCR8 F123A mutant (TM3) | IP accumulation, agonist |  |  |  | EC50 | 19 nM
Cc1[nH]c2ccc(C#N)cc2c(=O)c1Br | Plasmodium falciparum | whole cell extended time | 3D7 | 72 h |  | IC50 | 640 nM
COc1ccccc1Oc1cccc(CN2CCC3(CC2)C(=O)NCN3CCc2ccccc2)c1 | human CCR8 W194A mutant (TM5) | IP accumulation, agonist |  |  |  | EC50 | 7.6 nM
Cc1nc2ccccc2c(O)c1-c1ccc(Cl)cc1 | Plasmodium falciparum | whole cell extended time | 3D7 | 72 h |  | IC50 | 1000 nM
COC(=O)C1=C(C)NC(C)=C(C(=O)OC)C1c1c(-c2cccc(C(F)(F)F)c2)nc2sccn12 |  |  | guinea pig left atrium | 50 µM, paced at 1 Hz | baseline: control | decrease in developed tension | 89 ± 3.3%
CCN(c1cc(-c2ccc(CN3CCOCC3)cc2)cc(C(=O)NCc2c(C)cc(C)[nH]c2=O)c1C)C1CCOCC1 |  |  | human patients, EZH2-mutated, relapsed or refractory follicular lymphoma | dose not given |  | objective response rate | 77%
C[C@H]1COCCN1c1nc(-c2cnc(N)cc2C(F)F)nc(N2CCOCC2)n1 | AN3 CA |  |  |  |  | GI50 | 126 nM
CCNS(=O)(=O)c1ccc(OC)cc1C1(O)CCN(Cc2cccc(Oc3ccccc3OC)c2)CC1 | human CCR8 W251Q mutant (TM6) | IP accumulation, agonist |  |  |  | EC50 | 80 nM
CNC(C)C1CCC(N)C(OC2C(N)CC(N)C(OC3OCC(C)(O)C(NC)C3O)C2O)O1 (stereo not drawn) | Acinetobacter baumannii |  | clinical isolate RKI-No_4/15 |  |  | MIC | 2 µg/mL (≈ 4.19 µM)
CC(C)CC1c2[nH]c3ccccc3c(=O)c2CN1C(=O)OC(C)(C)C (stereo not drawn) | Plasmodium falciparum | whole cell extended time | 3D7 | 72 h |  | IC50 | 220 nM
COC(=O)C1=C(C)NC(C)=C(C(=O)OC)C1c1c(Cl)nc2sc(C)c(C)n12 |  |  | guinea pig left atrium | 5x1.000e-06 M |  | decrease in contractile force | 73 ± 3.4%
CCOC(=O)c1cn(CC)c2cc(OCc3ccccc3)ccc2c1=O | Plasmodium falciparum | whole cell extended time | 3D7 | 72 h |  | IC50 | 950 nM
COC(=O)C1=C(C)NC(C)=C(C(=O)OC)C1c1c(Cl)nc2sc(C)cn12 |  | calcium-induced contraction, relaxant | guinea pig ileum longitudinal muscle |  |  | IC50 | 2060 nM
Cc1[nH]c(C)c(-c2ccc(OCc3cc(C(F)(F)F)cc(C(F)(F)F)c3)nc2)c(=O)c1Br | Plasmodium falciparum | whole cell extended time | 3D7 | 72 h |  | IC50 | 150 nM
Cc1c(C#N)cccc1[C@@H](C)Nc1nnc(C)c2cnc(N3CCOCC3)cc12 | SNU-C4 | ERK phosphorylation, In-Cell Western, refers to: phospho-ERK |  |  |  | IC50 | 20.1 ± 3.9 nM
